Measured values collected from several papers.
A part holds a random share of what one study measured.

Series 1
Target: Sal-like protein 4, full length isoform B (SALL4, Homo sapiens, UniProt Q9UJQ4-2, residues 1-616)
Method: universal PBM
Form: double-stranded DNA, one strand shown
Sample: in vitro
Concentration: not given
Notes: 8-mer, flanks averaged, mean of replicates
Direction: higher = stronger binding
Oligonucleotide	E-score
ACGTGGAG	-0.137
GCACGGGA	-0.224
CACCTTTA	0.074
CCGAATAG	0.0321
AAGGGGCT	-0.0665
CTTGGAGA	-0.0455
GGGTACCC	-0.293
CAGCCCCG	-0.31
ACATCCAG	0.0349
CAACGCCC	-0.203
AGACTTAC	0.044
AAACGTTC	0.0805
GTAGGATA	0.0529
TCTCGGAA	-0.025
CAACTAAA	0.2
AGAAATCA	0.223
AGGTATTG	0.128
AATCCCAT	0.162
ACACGAAT	0.135
CCCTTTAC	0.00585
TGTCGGAA	0.00342
AAGCATGA	0.0397
GCATGACA	0.04
AACCAACC	-0.124
CTGCGTAC	-0.217

Series 2
Target: RNA binding protein fox-1 homolog 2, RRM domain, GST-SBP tag (RBFOX2, Homo sapiens, UniProt O43251-10, residues 100-194)
Method: RNA Bind-n-Seq
Form: RNA
Sample: in vitro
Concentration: 365 nM
Notes: natural RNA segment, single round, ends assumed
Reference: no-protein control
Direction: higher = stronger binding
Residues (chain): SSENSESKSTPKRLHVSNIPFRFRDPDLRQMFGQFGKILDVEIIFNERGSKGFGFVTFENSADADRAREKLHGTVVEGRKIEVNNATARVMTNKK
Oligonucleotide	RBNS enrichment (R)
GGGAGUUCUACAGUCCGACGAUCGCUCAGUUACACAGCUUGUCUGUGACUGGGAAGCCCAUUUUGUGUCAUUUCUGCACACCUGUCCGCUGUUGACACCUUAUUAGAGGCACUGCAUUUUGGUUUCACAAUUCUGGAAUUCUCGGGUGCCAA	0.833
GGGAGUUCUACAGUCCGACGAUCUAAUUGACUUUUCUUUCAGCUCCAGUGUGAACUAUAAAACCAUAAUCACUCAGUUCUUGGAAAAGUCAAACAACGUGGUGGACAUUUUGUCACAUUUUAGAAGCAGUCAGUGGAAUUCUCGGGUGCCAA	0.29
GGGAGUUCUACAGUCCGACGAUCUGGUUGAUUAGAGAUUCUGAGAAGCAGUAGAGCUGGCUGGGAGGUGGGCUACAGAGGAGCAAGCAAGCACUUCAGACUGACCAAAGGUUGUGGUGGCCCACAUGGCUCUGUGGAAUUCUCGGGUGCCAA	0.713
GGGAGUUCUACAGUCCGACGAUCGACCUUGCUGGUGUAGUCUUUUUAUAGGUUUUAUAAACCACAUGAGCCUAUAUCAGUCAUUUUAGUGUCUGACCUAAUGCUUGGCACUGUCAGUGCUUUGUUUAGAUGAUUGGAAUUCUCGGGUGCCAA	0.215
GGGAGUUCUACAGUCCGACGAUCGACAGACUGGAGCCAUGGCCUUAGGCCAUAUAGCCUUACUAUCAAGUGUCUUCCUCCACGCGGAUUCCUGUACACCUUGAUCCAAAGCAGUGCUCCCAAGAGCAGCUCCUUGGAAUUCUCGGGUGCCAA	0.242
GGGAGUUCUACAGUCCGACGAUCAGGAGAUCAGCUCCAACUAUGGUGGGGUGAGUUUUUCCUGACUUGGAGGCUUGCCAGAGAAGGUGGAGAAUGAAGUAGAACUCAGCUUCCCUCUCAGAGCCUGUGCCCGAUGGAAUUCUCGGGUGCCAA	0.315
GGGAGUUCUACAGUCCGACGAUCCGAGAGGAUUUGCACAUGCCAAGCAGAGGGUGGCUCUCUUGGCAGUGAGAUUUGGGGGAAACAGACAUUAAGACAGCCUCCCAAAGCAGGGUGUGUUGCUCGUGACCCCAUGGAAUUCUCGGGUGCCAA	1.73
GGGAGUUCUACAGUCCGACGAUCUAAAAAUAAAUGUGUAUGUGUGUACAUAUAUAUACACACACAUACACAUAUAUUAUGCAUGUGGUGAAAAGAAUUGGCUAGAUAGGGGAUUUUUCUGAACACUGCAAAAAUGGAAUUCUCGGGUGCCAA	6.11
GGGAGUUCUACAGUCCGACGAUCUUGCUUCCAGAGAAUUGGAACGUGUGUGGCCUGGAGCGCAGUAGAAACCAGCCGUUCCCAACCUAUUCCCAUUGACAGUGAUCUUGCAUCCGCCAGCCAUUGCUCUUGGCUGGAAUUCUCGGGUGCCAA	2.23
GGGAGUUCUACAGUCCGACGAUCUCGAACCUGACCAUUGCAGGUGAUCGUGGCCUCGGAGGCCAGCACAGAAUUCUUUCACACUUUUGCAGAAAUGUGUAUAUUUAAUGCUGUGCGACUGCUAAACUGCAGGUUGGAAUUCUCGGGUGCCAA	0.28
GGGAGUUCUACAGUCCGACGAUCCUGCCAGUGCCUUACCACCUACCCAGGAAAGCAGGUCCUUGAGCCACCCAGGCCUUACAAUUUGAUCACCAAGAGUAUCCCAGAAGUUAUCUCAGCUUCUCCAUCACCCCUGGAAUUCUCGGGUGCCAA	0.42
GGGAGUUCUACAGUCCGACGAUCUUCCCUGCUCCAUCCCUGUGGCACCAUUAUGGUUUUUUGGCUGUUUGUAUAUACGGUUACGUAUUAACUCUGGAAUCCUAUGGGCUCAUCUUGCUCACCCAAUGUGGGAGUGGAAUUCUCGGGUGCCAA	0.379

Series 3
Target: Histone acetyltransferase KAT6A, both winged helices, GST fusion (KAT6A, Homo sapiens, UniProt Q92794, residues 1-181)
Method: protein binding microarray
Form: double-stranded DNA, one strand shown
Sample: in vitro
Concentration: not given
Notes: 8-mer, flanks averaged, mean of 2 arrays, mostly near background
Reference: not given
Direction: higher = stronger binding
Target sequence (chain): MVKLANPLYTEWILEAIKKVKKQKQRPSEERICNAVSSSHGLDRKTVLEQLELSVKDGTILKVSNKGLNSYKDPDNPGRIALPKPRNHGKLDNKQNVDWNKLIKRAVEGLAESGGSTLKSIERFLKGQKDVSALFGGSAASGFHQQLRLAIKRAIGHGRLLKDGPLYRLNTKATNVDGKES
Oligonucleotide	E-score
GATTCCCC	0.0854
CATGTCTC	-0.0653
GCCTGAGA	-0.00955
TGCTGTAA	-0.161
ACCTGTCG	-0.00334
GTTCGGCA	0.117
ATGCACTA	-0.0518
CGTTCACA	0.0547
ACCTACAG	-0.0683
CTCTACAA	-0.143
GCCTACCA	-0.00381
CGCCAGGA	0.121
GGGATCGA	-0.11
CCTCGCAC	0.018
ACGACCCT	-0.133
AAGTTCCT	0.0166
CTAGCCGC	0.262
CTGCAGGC	-0.107
CAGCCGGG	0.00226
CTGCACAG	-0.0803

Series 4
Target: RING finger protein unkempt homolog, zinc fingers 1-6, GST-SBP tag (UNK, Homo sapiens, UniProt Q9C0B0, residues 30-357)
Sequence of UniProt Q9C0B0 (30-357, looked up): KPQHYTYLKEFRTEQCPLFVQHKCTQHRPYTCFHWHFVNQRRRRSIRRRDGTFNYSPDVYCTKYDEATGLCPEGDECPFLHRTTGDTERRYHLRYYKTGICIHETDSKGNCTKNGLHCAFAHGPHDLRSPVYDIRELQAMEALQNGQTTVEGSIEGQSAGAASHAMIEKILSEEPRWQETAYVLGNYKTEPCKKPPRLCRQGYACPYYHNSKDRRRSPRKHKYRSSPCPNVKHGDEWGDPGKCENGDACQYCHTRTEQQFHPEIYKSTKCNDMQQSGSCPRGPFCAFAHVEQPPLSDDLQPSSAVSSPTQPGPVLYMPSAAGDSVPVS
Method: RNA Bind-n-Seq
Form: RNA
Sample: in vitro
Concentration: not given
Notes: RNA with constant flanks, human and mouse sites, ends assumed
Reference: input RNA pool
Direction: higher = stronger binding
Oligonucleotide	bound/input enrichment
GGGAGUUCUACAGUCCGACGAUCAUCGUCAAUGAUGAUCAGUCCUUUUAUGCUGAUAUUUACAUGGAGGAUGGCUUAAUAAAGCAAAUUGGAGACAAUCUGAUUGUCCCCGGAGGUGUGAAGACCAUCGAGGCCAACGGGAAGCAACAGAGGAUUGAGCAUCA	0.185 ratio
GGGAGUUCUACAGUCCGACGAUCGAACAGUCCCAGGGCUCCACCACAAAUAGUGACUGGAUGAAAAACCUCAUCUCCCCUGACUUAGGAGUUGUAUUUCUCAAUGUACCUGAAAAUCUCAAAAAUCCAGAGCCAAACAUCAAGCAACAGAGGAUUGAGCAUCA	0.339 ratio
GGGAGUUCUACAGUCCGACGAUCGAUGAAAUGGGUUUGGGAAAGACACUUCAAACAAUUUCUCUUCUUGGAUACAUGAAACACUAUAGAAAUAUUCCUGGUCCUCAUAUGGUUUUGGUUCCCAAGUCUACAUUGCACAACUGGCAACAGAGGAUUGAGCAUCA	0.77 ratio
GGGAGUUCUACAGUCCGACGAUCAUAUCUAUACACACAUGUGUGUUGUGUAUAUGCAUGUGUGUGUGUGCGUGUGUGUAUAGUUUUAGCUCCAAGCCAAGCAAGUUUGUGUUUGGAUAGAGGGGAACUUAACUAUUAACUACACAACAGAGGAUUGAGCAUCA	0.143 ratio
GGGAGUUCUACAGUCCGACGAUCAGGACUUCAUUCCUCCAUGUUUUCUUCCCUUAUCUUACUGUCAUUGUCCUAAAACCUUAUUUUAGAAAAUUGAUCAAGUAACAUGUUGCAUGUGGCUUACUCUGGAUAUAUCUAAGCCCUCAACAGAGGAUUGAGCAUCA	0.501 ratio
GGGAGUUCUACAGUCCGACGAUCACAGUUGUGCCACAAGUGCCCACCUCUCCUAAAUCCAGCCUUAGCGUCCAACCUGGAUUCCUAGCUGAUCUUAACAGGACAUUGCAGCGCAAGUCUAUCACGCGGCAUGGCUCCCUGUCCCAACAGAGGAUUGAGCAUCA	0.159 ratio
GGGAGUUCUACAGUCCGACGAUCAUUACUCUAAUGGAGUACUAUUCCAAAGAAGCCUUGGGUGAUUCCAAAUCUAAGAAGUCAGUAGCUUAUAAUUACGCAUGCAUACUUAUUUUGGUGGUGGUUCAGUCUUCCAGUGAUGUUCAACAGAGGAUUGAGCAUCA	0.431 ratio
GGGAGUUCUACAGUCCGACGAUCUUUCCAGACCAAGGAUACAGAGGCCGAGGCAGAGGCGAGUAUUACUCCAGAGGUCGGAGCUAUAGAGGCUCUUAUGGGGGUCGUGGCAGAGGUGGUAGAGGGCACACUCGUGAGUAUCCUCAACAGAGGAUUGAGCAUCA	0.597 ratio
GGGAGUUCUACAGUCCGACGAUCGCAACCAAAGAUGUACAUAAAGGAGAGUCUGGAAGCCAGGAAGGGGGGGUAAAUAGUUUUAGUACCUUAAUUGGCCUCCCUUCAACCUCAGCUGUUACUUCACAGCCUAAAAGCUUUGAACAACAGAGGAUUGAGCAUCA	1.01 ratio
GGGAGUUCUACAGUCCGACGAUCUUUUAGAGUGUGGAAAAACCAAUCUGAGAAGAACAACCUACCUUGUCCUUGAUGAAGCAGAUAGAAUGCUUGAUAUGGGCUUUGAACCCCAAAUAAGGAAGAUUGUGGAUCAAAUAAGACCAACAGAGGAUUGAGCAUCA	0.241 ratio
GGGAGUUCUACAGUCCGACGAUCGCUGUUAUCUAUGCGGGUGUAAGGGGAUAUCUUGAUAAACUGGAGCCCAGCAAGAUUACAAAGUUUGAGAAUGCUUUCUUGUCUCAUGUCGUCAGCCAGCACCAAGCCUUGUUGGGCACUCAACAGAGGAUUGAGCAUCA	0.143 ratio

Excerpt of the above (series 4):
Oligonucleotide	bound/input enrichment
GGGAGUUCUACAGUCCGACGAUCAUCGUCAAUGAUGAUCAGUCCUUUUAUGCUGAUAUUUACAUGGAGGAUGGCUUAAUAAAGCAAAUUGGAGACAAUCUGAUUGUCCCCGGAGGUGUGAAGACCAUCGAGGCCAACGGGAAGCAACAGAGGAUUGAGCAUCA	0.185 ratio
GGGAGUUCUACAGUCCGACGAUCGAACAGUCCCAGGGCUCCACCACAAAUAGUGACUGGAUGAAAAACCUCAUCUCCCCUGACUUAGGAGUUGUAUUUCUCAAUGUACCUGAAAAUCUCAAAAAUCCAGAGCCAAACAUCAAGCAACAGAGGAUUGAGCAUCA	0.339 ratio
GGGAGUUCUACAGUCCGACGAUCGAUGAAAUGGGUUUGGGAAAGACACUUCAAACAAUUUCUCUUCUUGGAUACAUGAAACACUAUAGAAAUAUUCCUGGUCCUCAUAUGGUUUUGGUUCCCAAGUCUACAUUGCACAACUGGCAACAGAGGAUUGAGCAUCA	0.77 ratio
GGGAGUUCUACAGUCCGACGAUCAUAUCUAUACACACAUGUGUGUUGUGUAUAUGCAUGUGUGUGUGUGCGUGUGUGUAUAGUUUUAGCUCCAAGCCAAGCAAGUUUGUGUUUGGAUAGAGGGGAACUUAACUAUUAACUACACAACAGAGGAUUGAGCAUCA	0.143 ratio
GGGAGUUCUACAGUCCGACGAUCAGGACUUCAUUCCUCCAUGUUUUCUUCCCUUAUCUUACUGUCAUUGUCCUAAAACCUUAUUUUAGAAAAUUGAUCAAGUAACAUGUUGCAUGUGGCUUACUCUGGAUAUAUCUAAGCCCUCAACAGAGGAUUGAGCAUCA	0.501 ratio
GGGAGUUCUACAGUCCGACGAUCACAGUUGUGCCACAAGUGCCCACCUCUCCUAAAUCCAGCCUUAGCGUCCAACCUGGAUUCCUAGCUGAUCUUAACAGGACAUUGCAGCGCAAGUCUAUCACGCGGCAUGGCUCCCUGUCCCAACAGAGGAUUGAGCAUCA	0.159 ratio
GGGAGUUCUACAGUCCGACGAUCAUUACUCUAAUGGAGUACUAUUCCAAAGAAGCCUUGGGUGAUUCCAAAUCUAAGAAGUCAGUAGCUUAUAAUUACGCAUGCAUACUUAUUUUGGUGGUGGUUCAGUCUUCCAGUGAUGUUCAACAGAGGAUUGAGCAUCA	0.431 ratio
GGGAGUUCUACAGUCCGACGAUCUUUCCAGACCAAGGAUACAGAGGCCGAGGCAGAGGCGAGUAUUACUCCAGAGGUCGGAGCUAUAGAGGCUCUUAUGGGGGUCGUGGCAGAGGUGGUAGAGGGCACACUCGUGAGUAUCCUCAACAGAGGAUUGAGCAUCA	0.597 ratio
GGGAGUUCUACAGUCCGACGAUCGCAACCAAAGAUGUACAUAAAGGAGAGUCUGGAAGCCAGGAAGGGGGGGUAAAUAGUUUUAGUACCUUAAUUGGCCUCCCUUCAACCUCAGCUGUUACUUCACAGCCUAAAAGCUUUGAACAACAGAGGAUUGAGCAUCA	1.01 ratio
